Measurements pooled from the literature.
Each line is one published result; not all experiments were run side by side.

CCCCOC(=O)N1CCN(C(=O)[C@H](CP(=O)(O)O)NC(=O)c2cc(N3CC[C@H](OC)C3)nc(-c3ccccc3)n2)CC1 has a median Tmax of 0.5 h (healthy human, plasma; subcutaneous, 4 mg, with: rifampin 600 mg i.v.).
CN1C(=O)[C@@H](NC(=O)c2nnc(Cc3ccccc3)[nH]2)COc2ccccc21 has a median Tmax of 3 h (human, male, whole blood; oral, 40 mg single dose, fed, high-fat meal).
CC[C@@H]1C(=O)N(C)c2cnc(Nc3ccc(C(=O)N[C@H]4CC[C@H](N5CCN(CC6CC6)CC5)CC4)cc3OC)nc2N1C(C)C gave a median Tmax of 1.97 h (human, plasma; intravenous infusion, 300 mg over 2 h, first infusion).
The median Tmax of CN(C)[C@@H](CCOc1cccc2ccccc12)c1ccccc1 is reported as 1 h (healthy male humans, plasma; oral, 60 mg, with: udenafil 200 mg).
With CC(C)(O)CNc1nc(Nc2ccnc(C(F)(F)F)c2)nc(-c2cccc(C(F)(F)F)n2)n1 the median Tmax was 2.08 h (human patients; oral, 100 mg once daily, cycle 1 day 1, with: consolidation chemotherapy).
For Cn1c(-c2ccc(C(N)=O)cc2F)nnc1C(C)(C)Oc1c(F)cc(Cl)cc1F, the median Tmax was 1.5 h (young non-Japanese humans, plasma; oral, 2 mg once daily, last day of 14 days).
NCCCS(=O)(=O)O has a median Tmax of 4.5 h (human, plasma; oral, 100 mg modified-release tablet, single dose).
N#Cc1ccnc(N2C(=O)CC[C@H]2C(=O)N(c2cncc(F)c2)[C@H](C(=O)NC2CC(F)(F)C2)c2ccccc2Cl)c1 has a median Tmax of 3.99 h (human patients; oral, 500 mg once daily, cycle 1 day 1, with: induction chemotherapy).

For quick reference, copied from above:
CN1C(=O)[C@@H](NC(=O)c2nnc(Cc3ccccc3)[nH]2)COc2ccccc21 has a median Tmax of 3 h (human, male, whole blood; oral, 40 mg single dose, fed, high-fat meal).
